Measured values of several laboratories.
Each line is one published result; not all experiments were run side by side. ± marks the error that the study gave.
KCNT1: Potassium channel subfamily T member 1 (KCNT1, Homo sapiens, UniProt Q5JUK3)
GLP1R: Glucagon-like peptide 1 receptor (GLP1R, Homo sapiens, UniProt P43220)
GPR17 long isoform: Uracil nucleotide/cysteinyl leukotriene receptor, long isoform (GPR17, Homo sapiens, UniProt Q13304)
AHR: Aryl hydrocarbon receptor (AHR, Homo sapiens, UniProt P35869)

Amino acid sequences for entries named in this document (tags omitted). Residues count along the entry.
UniProt Q5JUK3, whole entry: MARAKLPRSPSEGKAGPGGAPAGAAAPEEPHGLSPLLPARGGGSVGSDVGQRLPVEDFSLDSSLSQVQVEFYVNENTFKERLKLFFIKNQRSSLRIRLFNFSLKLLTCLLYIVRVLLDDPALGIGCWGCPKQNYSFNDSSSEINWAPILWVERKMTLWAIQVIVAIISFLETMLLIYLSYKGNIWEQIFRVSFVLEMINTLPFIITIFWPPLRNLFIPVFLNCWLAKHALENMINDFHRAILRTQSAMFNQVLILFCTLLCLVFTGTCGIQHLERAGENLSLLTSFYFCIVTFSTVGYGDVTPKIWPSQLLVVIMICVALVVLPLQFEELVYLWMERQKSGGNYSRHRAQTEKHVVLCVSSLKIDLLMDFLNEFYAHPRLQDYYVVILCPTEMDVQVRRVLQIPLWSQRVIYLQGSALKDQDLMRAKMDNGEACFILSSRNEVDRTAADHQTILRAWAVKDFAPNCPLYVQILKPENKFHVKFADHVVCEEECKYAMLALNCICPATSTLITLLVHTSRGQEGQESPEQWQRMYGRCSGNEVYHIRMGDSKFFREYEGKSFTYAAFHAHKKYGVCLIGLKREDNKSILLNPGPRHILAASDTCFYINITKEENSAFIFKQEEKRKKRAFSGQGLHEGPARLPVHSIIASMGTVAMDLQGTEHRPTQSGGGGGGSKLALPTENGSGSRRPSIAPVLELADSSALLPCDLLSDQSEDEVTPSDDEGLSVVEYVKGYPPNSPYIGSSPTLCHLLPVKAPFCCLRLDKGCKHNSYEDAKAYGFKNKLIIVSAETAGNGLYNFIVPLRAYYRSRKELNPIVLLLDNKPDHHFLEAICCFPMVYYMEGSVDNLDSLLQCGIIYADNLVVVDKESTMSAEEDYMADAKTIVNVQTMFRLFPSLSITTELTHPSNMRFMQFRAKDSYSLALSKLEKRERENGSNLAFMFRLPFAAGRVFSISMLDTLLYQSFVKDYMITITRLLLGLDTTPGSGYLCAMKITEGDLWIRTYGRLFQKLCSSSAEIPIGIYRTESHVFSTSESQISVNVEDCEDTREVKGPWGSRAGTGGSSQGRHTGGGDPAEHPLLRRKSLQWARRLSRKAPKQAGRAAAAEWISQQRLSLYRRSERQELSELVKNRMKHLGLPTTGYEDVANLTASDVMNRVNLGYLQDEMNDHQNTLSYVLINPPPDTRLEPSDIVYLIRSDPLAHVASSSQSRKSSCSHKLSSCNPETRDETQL
UniProt P43220, whole entry, looked up: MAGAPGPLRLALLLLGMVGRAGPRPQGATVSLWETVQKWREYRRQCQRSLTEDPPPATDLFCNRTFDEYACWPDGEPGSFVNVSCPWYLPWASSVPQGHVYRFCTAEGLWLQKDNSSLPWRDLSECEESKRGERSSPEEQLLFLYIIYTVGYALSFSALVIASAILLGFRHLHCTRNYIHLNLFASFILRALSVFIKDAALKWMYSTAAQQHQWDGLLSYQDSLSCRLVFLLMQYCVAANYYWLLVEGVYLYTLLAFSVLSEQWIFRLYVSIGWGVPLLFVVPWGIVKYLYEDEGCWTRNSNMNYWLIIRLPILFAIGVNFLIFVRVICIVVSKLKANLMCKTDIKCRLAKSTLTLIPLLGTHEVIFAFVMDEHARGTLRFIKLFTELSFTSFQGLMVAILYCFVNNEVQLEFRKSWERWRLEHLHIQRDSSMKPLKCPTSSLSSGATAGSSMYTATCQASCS
UniProt P43220, 24-463 limits assumed: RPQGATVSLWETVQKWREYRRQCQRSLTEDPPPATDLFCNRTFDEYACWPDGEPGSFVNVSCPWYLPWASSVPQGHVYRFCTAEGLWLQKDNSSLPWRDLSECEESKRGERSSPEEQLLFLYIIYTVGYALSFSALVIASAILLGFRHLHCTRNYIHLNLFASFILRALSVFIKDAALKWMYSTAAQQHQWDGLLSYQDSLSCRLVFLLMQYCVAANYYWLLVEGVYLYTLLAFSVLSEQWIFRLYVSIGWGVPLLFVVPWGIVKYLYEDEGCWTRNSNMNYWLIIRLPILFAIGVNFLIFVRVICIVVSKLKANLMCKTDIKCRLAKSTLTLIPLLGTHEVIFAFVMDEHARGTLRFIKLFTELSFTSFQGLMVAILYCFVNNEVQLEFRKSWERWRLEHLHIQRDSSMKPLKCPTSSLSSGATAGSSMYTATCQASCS
UniProt Q13304, whole entry: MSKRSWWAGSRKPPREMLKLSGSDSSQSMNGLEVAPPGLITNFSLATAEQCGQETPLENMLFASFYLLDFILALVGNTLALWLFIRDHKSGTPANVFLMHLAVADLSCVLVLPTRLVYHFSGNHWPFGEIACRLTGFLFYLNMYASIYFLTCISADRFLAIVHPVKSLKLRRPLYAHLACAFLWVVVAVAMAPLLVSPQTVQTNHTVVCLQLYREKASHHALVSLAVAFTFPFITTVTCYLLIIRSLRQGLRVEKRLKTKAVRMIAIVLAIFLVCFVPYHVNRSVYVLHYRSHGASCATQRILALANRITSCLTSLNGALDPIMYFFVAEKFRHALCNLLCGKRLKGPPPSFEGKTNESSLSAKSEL
UniProt P35869, whole entry, looked up: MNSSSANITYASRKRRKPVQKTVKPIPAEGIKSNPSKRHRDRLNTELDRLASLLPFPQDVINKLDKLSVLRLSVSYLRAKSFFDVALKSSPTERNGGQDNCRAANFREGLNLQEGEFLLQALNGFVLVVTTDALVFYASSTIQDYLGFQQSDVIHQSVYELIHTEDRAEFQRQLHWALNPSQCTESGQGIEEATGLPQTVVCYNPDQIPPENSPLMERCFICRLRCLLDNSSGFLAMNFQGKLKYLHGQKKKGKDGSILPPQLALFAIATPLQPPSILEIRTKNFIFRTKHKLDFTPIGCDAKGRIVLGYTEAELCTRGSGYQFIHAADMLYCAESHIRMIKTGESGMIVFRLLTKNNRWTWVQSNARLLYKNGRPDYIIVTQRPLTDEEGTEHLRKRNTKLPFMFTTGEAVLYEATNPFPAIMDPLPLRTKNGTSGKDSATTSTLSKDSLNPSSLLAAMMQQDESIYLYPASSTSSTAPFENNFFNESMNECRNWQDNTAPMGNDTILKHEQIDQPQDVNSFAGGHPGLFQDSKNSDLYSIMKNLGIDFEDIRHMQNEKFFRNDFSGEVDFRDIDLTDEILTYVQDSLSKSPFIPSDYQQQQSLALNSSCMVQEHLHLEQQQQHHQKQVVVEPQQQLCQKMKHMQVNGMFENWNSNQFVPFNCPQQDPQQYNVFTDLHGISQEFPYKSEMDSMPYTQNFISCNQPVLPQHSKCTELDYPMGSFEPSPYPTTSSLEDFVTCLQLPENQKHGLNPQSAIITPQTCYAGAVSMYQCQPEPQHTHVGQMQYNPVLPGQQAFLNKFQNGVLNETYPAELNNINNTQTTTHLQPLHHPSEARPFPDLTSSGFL
UniProt P30542, whole entry: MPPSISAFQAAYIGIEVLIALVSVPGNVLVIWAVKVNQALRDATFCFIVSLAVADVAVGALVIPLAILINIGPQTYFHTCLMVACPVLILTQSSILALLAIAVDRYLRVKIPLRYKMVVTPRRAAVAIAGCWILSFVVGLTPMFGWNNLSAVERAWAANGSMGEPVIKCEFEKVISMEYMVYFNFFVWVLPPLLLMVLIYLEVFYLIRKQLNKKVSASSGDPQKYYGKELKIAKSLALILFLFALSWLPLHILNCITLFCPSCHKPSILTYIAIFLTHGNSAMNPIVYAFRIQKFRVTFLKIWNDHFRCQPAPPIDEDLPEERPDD

Structure (SMILES) = Cc1ccc2c(c1)ncn2CC1CCN(S(=O)(=O)c2cccc(C(F)(F)F)c2)CC1; tested on = KCNT1; test = thallium flux, activator; system = HEK293 expressing KCNT1; setting = 30 µM; how to read = relative to: loxapine maximal response; measurement = Emax; value = 52%
Structure (SMILES) = COc1ccccc1-c1cc(C(F)(F)F)nc(S(C)(=O)=O)n1; tested on = GLP1R; test = cAMP accumulation, positive allosteric modulator; system = HEK293T overexpressing target; setting = with: GLP-1 at EC20; measurement = Emax; value = 71 ± 15%
Structure (SMILES) = Cc1ccc(S(=O)(=O)OCCc2cn(CCc3c(C)[nH]c4cc(Cl)cc(Cl)c34)nn2)cc1; tested on = GLP1R; test = cAMP accumulation, positive allosteric modulator, HTRF; setting = 0.6 µM, crude reaction product, with: GLP-1(9-36) at EC20; how to read = relative to: BETP; measurement = Emax; value = 105%
Structure (SMILES) = O=S(=O)(c1cccc(C(F)(F)F)c1)N1CCC(Cn2cnc3cccc(C(F)(F)F)c32)CC1; tested on = KCNT1; test = thallium flux, activator; system = HEK293 expressing KCNT1; setting = 30 µM; how to read = relative to: loxapine maximal response; measurement = Emax; value = 40%
Structure (SMILES) = Cc1[nH]c2cc(Cl)cc(Cl)c2c1CCn1cc(CCCC#N)nn1; tested on = GLP1R; test = cAMP accumulation, positive allosteric modulator, HTRF; setting = 0.6 µM, purified compound, with: GLP-1(9-36) at EC20; how to read = relative to: BETP; measurement = Emax; value = 99 ± 3%
Structure (SMILES) = COc1ccc2ncn(CC3CCN(S(=O)(=O)c4cccc(C(F)(F)F)c4)CC3)c2c1; tested on = KCNT1; test = thallium flux, activator; system = HEK293 expressing KCNT1; setting = 30 µM; how to read = relative to: loxapine maximal response; measurement = Emax; value = 88%
Structure (SMILES) = O=C(Nc1ccc(Cl)cc1)C(NS(=O)(=O)c1cccs1)c1ccc(-c2ccccc2)cc1 (stereo not shown); tested on = GPR17 long isoform; test = calcium mobilization, antagonist; system = 1321N1 stably expressing GPR17; setting = fitted at highest concentration; how to read = higher = stronger inhibition; measurement = Emax; value = 91.9 ± 4.8%
Structure (SMILES) = COc1cc([C@@H]2c3cc4c(cc3[C@H](C=C(C)C)[C@H]3COC(=O)[C@H]23)OCO4)cc(OC)c1OC; tested on = Leishmania infantum; system = promastigote, iRFP; measurement = EC50; value = > 100 µM
Structure (SMILES) = Cc1cccc(CSc2nc(N)c(C#N)c(-c3cccc(F)c3)c2C#N)n1; tested on = Adenosine receptor A1 (ADORA1, Homo sapiens, UniProt P30542); test = cAMP accumulation; how to read = relative to: N6-cyclopentyladenosine; measurement = Emax; value = 20 ± 3.5%
Structure (SMILES) = Cc1ccccc1C(NS(=O)(=O)c1cccs1)C(=O)Nc1ccc(Cl)cc1 (stereo not shown); tested on = GPR17 long isoform; test = calcium mobilization, antagonist; system = 1321N1 stably expressing GPR17; setting = fitted at highest concentration; how to read = higher = stronger inhibition; measurement = Emax; value = 123 ± 3.12%
Structure (SMILES) = O=C(O)c1cccc(C(=O)c2c[nH]c3ccccc23)n1; tested on = AHR; test = reporter gene, agonist; how to read = relative to: ITE; measurement = Emax; value = 50 ± 2%
Structure (SMILES) = O=C(Nc1cccc(Br)c1)C(NS(=O)(=O)c1cccs1)c1ccccc1 (stereo not shown); tested on = GPR17 long isoform; test = calcium mobilization, antagonist; system = 1321N1 stably expressing GPR17; setting = fitted at highest concentration; how to read = higher = stronger inhibition; measurement = Emax; value = 74.9 ± 1.88%
Structure (SMILES) = Cc1[nH]c2cc(Cl)cc(Cl)c2c1CCn1cc(C2(O)COC2)nn1; tested on = GLP1R; test = cAMP accumulation, positive allosteric modulator, HTRF; setting = 0.6 µM, crude reaction product, with: GLP-1(9-36) at EC20; how to read = relative to: BETP; measurement = Emax; value = 94.8%
Structure (SMILES) = O=C(Nc1cccc(-c2cc[nH]n2)c1)C(NS(=O)(=O)c1cccs1)c1ccccc1 (stereo not shown); tested on = GPR17 long isoform; test = calcium mobilization, antagonist; system = 1321N1 stably expressing GPR17; setting = fitted at highest concentration; how to read = higher = stronger inhibition; measurement = Emax; value = 100 ± 4.85%
Structure (SMILES) = CCS(=O)(=O)c1nc(-c2ccc(F)cc2)cc(C(F)F)n1; tested on = GLP1R; test = cAMP accumulation, positive allosteric modulator; system = HEK293T overexpressing target; setting = with: GLP-1 at EC20; measurement = Emax; value = 76 ± 1.6%
Structure (SMILES) = CC(C)(Cn1cc(-c2ccc(B(O)O)cc2)nn1)c1c[nH]c2ccccc12; tested on = GLP1R; test = cAMP accumulation, positive allosteric modulator, HTRF; setting = 0.6 µM, crude reaction product, with: GLP-1(9-36) at EC20; how to read = relative to: BETP; measurement = Emax; value = 97%
Structure (SMILES) = COC(=O)[C@@H]1C(C=Nc2cncnc2N)=Cc2cc3c(cc2[C@H]1c1cc(OC)c(OC)c(OC)c1)OCO3; tested on = Leishmania infantum; system = promastigote, iRFP; measurement = EC50; value = 91 ± 2 µM
Structure (SMILES) = CCCC(O)c1cn(CCc2c(C)[nH]c3cc(Cl)cc(Cl)c23)nn1 (stereo not shown); tested on = GLP1R; test = cAMP accumulation, positive allosteric modulator, HTRF; setting = 0.6 µM, purified compound, with: GLP-1(9-36) at EC20; how to read = relative to: BETP; measurement = Emax; value = 101 ± 7%
Structure (SMILES) = COc1cccc2ncn(CC3CCN(S(=O)(=O)c4cccc(C(F)(F)F)c4)CC3)c12; tested on = KCNT1; test = thallium flux, activator; system = HEK293 expressing KCNT1; setting = 30 µM; how to read = relative to: loxapine maximal response; measurement = Emax; value = 74%
Structure (SMILES) = O=C(Nc1ccc(Cl)cc1)C(NS(=O)(=O)c1cccs1)c1ccc(F)cc1 (stereo not shown); tested on = GPR17 long isoform; test = calcium mobilization, antagonist; system = 1321N1 stably expressing GPR17; setting = fitted at highest concentration; how to read = higher = stronger inhibition; measurement = Emax; value = 93 ± 8.02%
Structure (SMILES) = COc1cccc(C(=O)c2c[nH]c3ccccc23)n1; tested on = AHR; test = reporter gene, agonist; how to read = relative to: ITE; measurement = Emax; value = 48 ± 3%
Structure (SMILES) = O=S(=O)(c1cccc(C(F)(F)F)c1)N1CCC(Cn2cnc3cc(C(F)(F)F)ccc32)CC1; tested on = KCNT1; test = thallium flux, activator; system = HEK293 expressing KCNT1; setting = 30 µM; how to read = relative to: loxapine maximal response; measurement = Emax; value = < 10%
Structure (SMILES) = COc1cc(C(=O)c2c[nH]c3ccccc23)ccn1; tested on = AHR; test = reporter gene, agonist; how to read = relative to: ITE; measurement = Emax; value = 66 ± 7%
Structure (SMILES) = O=C(Nc1ccc(Cl)cc1)C(NS(=O)(=O)c1cccs1)c1ccccc1F (stereo not shown); tested on = GPR17 long isoform; test = calcium mobilization, antagonist; system = 1321N1 stably expressing GPR17; setting = fitted at highest concentration; how to read = higher = stronger inhibition; measurement = Emax; value = 78.8 ± 2.42%
Structure (SMILES) = O=C(c1cccc(-c2ccccc2)n1)c1c[nH]c2ccccc12; tested on = AHR; test = reporter gene, agonist; how to read = relative to: ITE; measurement = Emax; value = 65 ± 3%
Structure (SMILES) = Cc1[nH]c2cc(Cl)cc(Cl)c2c1CCn1cc(CNC(N)=O)nn1; tested on = GLP1R; test = cAMP accumulation, positive allosteric modulator, HTRF; setting = 0.6 µM, purified compound, with: GLP-1(9-36) at EC20; how to read = relative to: BETP; measurement = Emax; value = 105 ± 2%
Structure (SMILES) = O=S(=O)(c1cccc(C(F)(F)F)c1)N1CCC(Cn2cnc3ccccc32)CC1; tested on = KCNT1; test = thallium flux, activator; system = HEK293 expressing KCNT1; setting = 30 µM; how to read = relative to: loxapine maximal response; measurement = Emax; value = 86%
Structure (SMILES) = CC(C)(Cn1cc(-c2ccc(S(C)(=O)=O)cc2)nn1)c1c[nH]c2ccccc12; tested on = GLP1R; test = cAMP accumulation, positive allosteric modulator, HTRF; setting = 0.6 µM, crude reaction product, with: GLP-1(9-36) at EC20; how to read = relative to: BETP; measurement = Emax; value = 88.7%
Structure (SMILES) = O=C(Nc1ccc(Cl)cc1)C(NS(=O)(=O)c1ccc(Br)cc1)c1ccccc1 (stereo not shown); tested on = GPR17 long isoform; test = calcium mobilization, antagonist; system = 1321N1 stably expressing GPR17; setting = fitted at highest concentration; how to read = higher = stronger inhibition; measurement = Emax; value = 99.7 ± 9.28%
Structure (SMILES) = O=C(O)CCNC(=O)c1ccc(NCc2cn(CCc3ccc4ccccc4c3)nn2)cc1; tested on = GLP1R; test = cAMP accumulation, positive allosteric modulator, HTRF; setting = 0.6 µM, with: GLP-1(9-36) at EC20; how to read = relative to: BETP; measurement = Emax; value = 77%
Structure (SMILES) = CCOC(=O)c1cccc(C(NS(=O)(=O)c2cccs2)C(=O)Nc2ccc(Cl)cc2)c1 (stereo not shown); tested on = GPR17 long isoform; test = calcium mobilization, antagonist; system = 1321N1 stably expressing GPR17; setting = fitted at highest concentration; how to read = higher = stronger inhibition; measurement = Emax; value = 99.1 ± 7.63%

For quick reference, copied from above:
Structure (SMILES) = Cc1[nH]c2cc(Cl)cc(Cl)c2c1CCn1cc(CCCC#N)nn1; tested on = GLP1R; test = cAMP accumulation, positive allosteric modulator, HTRF; setting = 0.6 µM, purified compound, with: GLP-1(9-36) at EC20; how to read = relative to: BETP; measurement = Emax; value = 99 ± 3%
Structure (SMILES) = COc1ccc2ncn(CC3CCN(S(=O)(=O)c4cccc(C(F)(F)F)c4)CC3)c2c1; tested on = KCNT1; test = thallium flux, activator; system = HEK293 expressing KCNT1; setting = 30 µM; how to read = relative to: loxapine maximal response; measurement = Emax; value = 88%
Structure (SMILES) = O=C(Nc1ccc(Cl)cc1)C(NS(=O)(=O)c1cccs1)c1ccc(-c2ccccc2)cc1 (stereo not shown); tested on = GPR17 long isoform; test = calcium mobilization, antagonist; system = 1321N1 stably expressing GPR17; setting = fitted at highest concentration; how to read = higher = stronger inhibition; measurement = Emax; value = 91.9 ± 4.8%
Structure (SMILES) = COc1cc([C@@H]2c3cc4c(cc3[C@H](C=C(C)C)[C@H]3COC(=O)[C@H]23)OCO4)cc(OC)c1OC; tested on = Leishmania infantum; system = promastigote, iRFP; measurement = EC50; value = > 100 µM
Structure (SMILES) = Cc1cccc(CSc2nc(N)c(C#N)c(-c3cccc(F)c3)c2C#N)n1; tested on = Adenosine receptor A1 (ADORA1, Homo sapiens, UniProt P30542); test = cAMP accumulation; how to read = relative to: N6-cyclopentyladenosine; measurement = Emax; value = 20 ± 3.5%
